{"data": "Results pooled from the literature", "Urea transporter 1": "Urea transporter 1 (Homo sapiens, UniProt Q13336)", "CYP2E1": "Cytochrome P450 2E1 (CYP2E1, Homo sapiens, UniProt P05181)", "note": "Lines come from different studies, so protocols differ. Numbers after ± are the reported error.", "UniProt Q13336, sequence (whole entry, looked up)": "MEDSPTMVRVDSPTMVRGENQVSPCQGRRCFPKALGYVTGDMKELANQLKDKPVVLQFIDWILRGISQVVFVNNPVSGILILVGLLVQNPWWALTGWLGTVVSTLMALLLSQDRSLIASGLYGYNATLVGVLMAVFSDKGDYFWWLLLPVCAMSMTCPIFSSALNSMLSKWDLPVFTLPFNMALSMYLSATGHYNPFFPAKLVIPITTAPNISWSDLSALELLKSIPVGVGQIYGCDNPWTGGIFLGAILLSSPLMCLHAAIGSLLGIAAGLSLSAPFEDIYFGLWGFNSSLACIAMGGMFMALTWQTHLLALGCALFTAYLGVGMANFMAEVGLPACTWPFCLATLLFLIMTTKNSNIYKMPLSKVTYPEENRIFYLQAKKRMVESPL", "UniProt P05181, sequence (whole entry, looked up)": "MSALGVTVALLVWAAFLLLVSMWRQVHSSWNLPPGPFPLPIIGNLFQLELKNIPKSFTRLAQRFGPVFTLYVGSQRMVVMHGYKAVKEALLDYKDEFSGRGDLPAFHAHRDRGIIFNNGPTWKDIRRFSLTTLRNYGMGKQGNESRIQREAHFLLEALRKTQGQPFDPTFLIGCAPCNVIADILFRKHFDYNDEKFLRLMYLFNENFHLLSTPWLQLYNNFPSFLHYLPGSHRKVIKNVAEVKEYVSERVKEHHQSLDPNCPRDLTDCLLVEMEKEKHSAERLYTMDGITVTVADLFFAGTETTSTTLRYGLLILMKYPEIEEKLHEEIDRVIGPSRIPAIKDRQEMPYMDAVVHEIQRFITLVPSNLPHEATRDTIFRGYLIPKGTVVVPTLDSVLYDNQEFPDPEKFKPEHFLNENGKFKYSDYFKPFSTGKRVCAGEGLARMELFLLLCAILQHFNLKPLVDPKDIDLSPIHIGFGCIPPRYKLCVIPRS", "UniProt Q9Y2H5, sequence (whole entry, looked up)": "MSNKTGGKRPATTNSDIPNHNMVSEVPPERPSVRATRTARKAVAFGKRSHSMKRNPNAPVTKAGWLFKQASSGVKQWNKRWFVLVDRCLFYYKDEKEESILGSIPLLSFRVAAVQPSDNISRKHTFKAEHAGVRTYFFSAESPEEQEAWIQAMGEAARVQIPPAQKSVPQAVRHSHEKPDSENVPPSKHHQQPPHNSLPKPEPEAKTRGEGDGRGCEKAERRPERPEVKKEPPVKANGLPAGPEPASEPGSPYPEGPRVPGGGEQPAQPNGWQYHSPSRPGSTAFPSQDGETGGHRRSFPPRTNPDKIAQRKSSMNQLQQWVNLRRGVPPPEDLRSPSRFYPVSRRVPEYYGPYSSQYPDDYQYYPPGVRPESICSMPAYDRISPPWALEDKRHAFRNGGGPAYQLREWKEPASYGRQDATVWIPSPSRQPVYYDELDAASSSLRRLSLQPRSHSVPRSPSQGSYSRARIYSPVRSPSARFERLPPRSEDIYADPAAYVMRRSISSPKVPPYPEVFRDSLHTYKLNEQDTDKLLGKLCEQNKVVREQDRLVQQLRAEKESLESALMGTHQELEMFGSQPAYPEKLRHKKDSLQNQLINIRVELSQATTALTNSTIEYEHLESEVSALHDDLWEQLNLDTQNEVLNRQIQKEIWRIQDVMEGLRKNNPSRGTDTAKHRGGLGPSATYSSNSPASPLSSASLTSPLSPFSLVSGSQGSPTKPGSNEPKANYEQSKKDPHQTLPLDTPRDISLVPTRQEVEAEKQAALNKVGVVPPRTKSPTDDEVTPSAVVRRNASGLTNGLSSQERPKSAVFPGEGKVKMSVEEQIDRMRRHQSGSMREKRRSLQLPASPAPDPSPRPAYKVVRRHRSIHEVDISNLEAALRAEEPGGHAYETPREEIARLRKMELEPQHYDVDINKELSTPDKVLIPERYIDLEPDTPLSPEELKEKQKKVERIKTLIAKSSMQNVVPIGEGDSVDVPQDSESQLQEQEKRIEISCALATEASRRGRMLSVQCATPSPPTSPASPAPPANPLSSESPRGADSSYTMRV"}
{"SMILES": "NCCC(=O)Nc1nnc(S(N)(=O)=O)s1", "target": "Enterococcus faecium γ-carbonic anhydrase", "test": "CO2 hydration, inhibitor, stopped-flow kinetics", "Ki": "0.068 µM"}
{"SMILES": "NC(=O)C(=O)O", "target": "Urea transporter 1", "test": "urea transport", "Ki": "no effect"}
{"SMILES": "NS(=O)(=O)c1nnc(NC(=O)CN2CCC3(CC2)COC3)s1", "target": "Enterococcus faecium γ-carbonic anhydrase", "test": "CO2 hydration, inhibitor, stopped-flow kinetics", "Ki": "0.086 µM"}
{"SMILES": "CCc1oc2ccccc2c1C(=O)c1cc(Br)c(O)c(Br)c1", "target": "CYP2E1", "test": "p-nitrophenol hydroxylation, inhibitor", "system": "baculosomes", "setting": "10 min, with additive 1 µM", "Ki": "0.53 µM"}
{"SMILES": "CCOc1ccc(C(=O)CC(SCc2ccccc2)C(=O)O)cc1 (stereo not shown)", "target": "Pleckstrin homology domain-containing family A member 6, PH domain (PLEKHA6, Homo sapiens, UniProt Q9Y2H5)", "test": "PLEKHA6 PI(4,5)P2 binding, fluorescence polarization", "setting": "together with: BODIPY-PI(4,5)P2 tracer", "Ki": "170 ± 45 µM"}
{"SMILES": "NC(N)=S", "target": "Urea transporter 1", "test": "urea transport", "setting": "inhibitor outside only", "Ki": "12000 µM"}
{"SMILES": "CCc1oc2ccccc2c1C(=O)c1cc(I)c(O)c(I)c1", "target": "CYP2E1", "test": "p-nitrophenol hydroxylation, inhibitor", "system": "baculosomes", "setting": "10 min, with additive 1 µM", "Ki": "0.31 µM"}
{"SMILES": "Nc1ncnc2c1ncn2[C@@H]1O[C@H](COP(=O)(O)OP(=O)(O)O)[C@@H](O)[C@H]1O", "target": "klp-6 (Caenorhabditis elegans, UniProt G5EFQ4)", "test": "microtubule gliding velocity, competitive inhibitor, single-molecule TIRF", "setting": "pH 7.4, together with: Mg-ATP varied, porcine microtubules", "Ki": "901 ± 31 µM"}
{"SMILES": "NC(=S)c1ccncc1", "target": "Urea transporter 1", "test": "urea transport inhibition", "setting": "together with: thiourea", "Ki": "300 µM"}
{"SMILES": "NCCCC(=O)Nc1nnc(S(N)(=O)=O)s1", "target": "Enterococcus faecium γ-carbonic anhydrase", "test": "CO2 hydration, inhibitor, stopped-flow kinetics", "Ki": "0.0352 µM"}
